Assay results of several laboratories.
A part holds a random share of what one study measured. Substitutions count along the parent as printed.

Block 1
Target: RING finger protein unkempt homolog, zinc fingers 1-6, GST-SBP tag (UNK, Homo sapiens, UniProt Q9C0B0, residues 30-357)
UniProt Q9C0B0, sequence (30-357, looked up): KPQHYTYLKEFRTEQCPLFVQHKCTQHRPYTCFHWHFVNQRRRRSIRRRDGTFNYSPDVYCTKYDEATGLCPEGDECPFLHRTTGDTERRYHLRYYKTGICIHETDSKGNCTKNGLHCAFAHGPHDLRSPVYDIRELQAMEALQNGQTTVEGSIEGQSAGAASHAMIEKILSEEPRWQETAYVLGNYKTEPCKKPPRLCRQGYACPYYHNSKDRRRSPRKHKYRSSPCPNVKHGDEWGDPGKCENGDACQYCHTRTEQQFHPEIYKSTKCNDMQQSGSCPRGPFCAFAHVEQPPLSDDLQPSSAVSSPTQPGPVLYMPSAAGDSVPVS
Method: RNA Bind-n-Seq
Molecule type: RNA
Sample: in vitro
Tested at: not given
Setting: RNA with constant flanks, ends assumed
Relative to: input RNA pool
Reading: higher = stronger binding
Constant ends, left off below: GGGAGUUCUACAGUCCGACGAUC … CAACAGAGGAUUGAGCAUCA
Oligonucleotide	bound/input enrichment [ratio]
AAAGAACUACUGAGGCAAGGCAGCAAAUUUAGGAGAGACAUUUCAACAAUAUUGACCGAGUCCGGAUUCCAAAUUAAAAAGAAAACUAAGACAUUAUACAUCAACAAAGCCAAUGUGUGG	2.91
GAGCAGUCCUUGGAAACUGCGAAAGCAGUGAAGGAACGCUACAGUUAUGUCUGCCCAGAUUCCGUAAAAGAGUUUAACAAGUAUGACACCGAUGGGUCAAAGUGGAUCAAACAGUACACC	0.111
GAAAUUUCAAAAGCAGGGGAGUAUGUACGAGUUAAACUACAACUGAAUCCAGCUGCCCGGGAAUUUAAACCAGAUGUAAAGUCUAAACCAGUGUCAGAUUCAUCUUCAGCACCAGCUUUU	0.186
AGAGACCUCCUAAAGACAUUCAGAAUCUCAUCUGACACAUUUAUAACCUACAUGAUGACUUCCGAAGACCAUUACCAUUCUGACGUGGCAUAUCACAACAGCCUGCACGCUGCUGAUGUA	0.106
UUGUCCUAUGAUGCUAUUAUCAUAGACUAAUGACAUUUAUCUUCAAAACACCAAAUUGUCUUCCGAAAAAUUAAUGUGAUUACAGGUAGAGGCCUUCUAGGUGAGACACUUUUAAGGUAC	0.241
CUUAUCUUGGUAGCCAAUGCAAUCGUGGGUGUGUGGCAGGAAAGAAAUGCUGAAAAUGCAACCGAAGCUCUUAAGGAAUAUGAGCCUGAAAUGGGCAAAGUGUAUCGACAGGACAGAAAG	0.351
UUCUUUUCUAAAACCUUGUUUAACUGCCUUGUUUAUGGACCAGAAAAUACCCAGCCAAUUUCCGAUGAUGUUUCAGACUUUGAUGUGGCACAGAUUAUAAUCAGGAUAAAUACUGCAACA	0.277
UCAACUGACAACAUCAAAUACCAGCCUAAGGGGGGUCAGGUACAAAUUGUUACUAAGAAGACCGACUUAAGCCAUGUGACAUCCAAAUGUGGCUCUCUAAAGAACAUCCGUCACAGGCCA	0.132
CUCAAAAGGAAGUAAGGAUUUUACAAGACAGAUUAAAAAAAAAUUGUUUUGUCCAAAAUACCGUUGUUGUUGAUUUUUUUUUAAGUUUUCUAAGCAAUAUUUUUCAAGCCAGAAGUCCUC	0.46
AGUAACUAACCACCAAGAACCUCUUCUGUAACCCAGAGUGAGAAAGCUGUAGGCAUAUUCCCGCAGGUAUCAAUGUCUCUGGCAUCCUUUAGAGCCUUACUCUGGUUAACUGACUCUCAG	0.159
UCUUGGGCAGAAGAGACAAACUCAAUGUUAAAAUCUCUAGGAGUGACCACGAAGUUUCACCGUUUUCCAAAUGUUUACCAUGAGCUAAGCAAAACUGAGUUAGACAUAUUGAAGUUAUGG	0.278

Block 2
Target: Histone acetyltransferase KAT6A, winged helix 1, GST fusion (KAT6A, Homo sapiens, UniProt Q92794, residues 1-85)
Method: protein binding microarray
Molecule type: double-stranded DNA, one strand shown
Sample: in vitro
Tested at: not given
Setting: 8-mer, flanks averaged, mean of 2 arrays, mostly near background
Relative to: not given
Reading: higher = stronger binding
Construct (chain): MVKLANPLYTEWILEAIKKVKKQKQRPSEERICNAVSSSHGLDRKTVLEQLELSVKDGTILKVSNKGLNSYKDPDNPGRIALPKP
Oligonucleotide	E-score
GTACTGAA	0.104
AGCGGTGA	0.16
AGTGATGA	-0.302
GTTTTGAA	-0.201
GGGCAGCA	-0.0841
GATCATCC	-0.0481
CTTCGGTA	-0.0535
CGCGCTAA	0.384
ATGTAACG	0.0563
CAGCATCA	-0.218
CAAAATAC	-0.158
CCGGAGAG	0.1
GAATCTGC	-0.0912
GCTGACCC	0.0262
AGTAAGAG	-0.149
CAATTGTG	-0.108
ATTCTACG	0.0788
AGCGTGTC	0.131
AGTTAAAG	-0.0423
AAATGACT	-0.208
CTATATTC	-0.172
AGGTTTTA	-0.0377
CGACTAAC	-0.022
ATGTTACC	0.153

Block 3
Target: Interferon regulatory factor 7, full length, phosphomimetic (IRF7, Homo sapiens, UniProt Q92985, residues 1-503, S471D/S472D/S475D/S476D/S477D/S483D/S484D/S487D)
UniProt Q92985, sequence (whole entry, unmodified, looked up): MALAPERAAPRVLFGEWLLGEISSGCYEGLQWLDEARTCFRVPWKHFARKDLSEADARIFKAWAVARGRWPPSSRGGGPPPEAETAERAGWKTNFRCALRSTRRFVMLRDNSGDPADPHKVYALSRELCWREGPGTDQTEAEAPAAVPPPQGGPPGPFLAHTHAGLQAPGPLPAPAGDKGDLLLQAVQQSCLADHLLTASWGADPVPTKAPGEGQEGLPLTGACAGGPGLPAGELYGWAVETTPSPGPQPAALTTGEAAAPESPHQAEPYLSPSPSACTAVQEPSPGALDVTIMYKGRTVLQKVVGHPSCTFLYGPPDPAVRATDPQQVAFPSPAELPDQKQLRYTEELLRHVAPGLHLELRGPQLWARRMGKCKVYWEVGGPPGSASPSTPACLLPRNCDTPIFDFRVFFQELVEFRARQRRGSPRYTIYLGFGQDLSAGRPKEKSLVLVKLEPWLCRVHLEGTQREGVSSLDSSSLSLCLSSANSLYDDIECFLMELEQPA
Method: protein-binding microarray
Molecule type: double-stranded DNA, one strand shown
Sample: in vitro
Tested at: 2200 nM top
Setting: 60-bp whole probe
With: salmon DNA 0.4 mg/ml
Relative to: random background probes
Reading: higher = stronger binding
Constant ends, left off below: GCCTAGCAC … GTCTTGATTCGCTTGACGCTGCTG
Oligonucleotide	fitted relative affinity
TTAGAACTGTGTTTCGATTAGTGCTAG	2.22 z-score
TTAGGTTTCGACACTGGGTCAGTGCTA	2.19 z-score
TGTTTTACAGGTTCTCTTTTAGTGCTA	1.6 z-score
GACGGTTTCCTTATGCTGACGTGCTAG	2.59 z-score
ATTTTTTTGCATTGCTTCTAGTGCTAG	2 z-score
GACGGACTGGGTCTCGGGACGTGCTAG	-0.972 z-score
GACGGACTGGGGTATCTGGACGTGCTA	-0.631 z-score
GACGATCTCAGTCTCTAGACGTGCTAG	0.251 z-score
ATTTAGTATTACCTATTTCTGTGCTAG	1.37 z-score
TCAGTTTTCGCTTTCTTACTGTGCTAG	10.9 z-score
TCAAGTCTCAATATTAGACTGTGCTAG	-0.167 z-score
TGAGGTATCGGGTATCGGTTAGTGCTA	0.152 z-score
TAGTTTATACTCTAGATGATGTGCTAG	0.505 z-score
GACGGTATCGGGTTTCGGTACGTGCTA	2.3 z-score
TTTTTTTTCTTTAAAAGTGAGTGCTAG	1.29 z-score
TCATCTTTCTCTGCTACCACTGTGCTA	1.82 z-score
TTAGATTTCGGGTATCGTTTAGTGCTA	3.27 z-score
GACGAACTGGACACTGGGGACGTGCTA	-0.36 z-score

Block 4
Target: Sal-like protein 4, full length isoform B (SALL4, Homo sapiens, UniProt Q9UJQ4-2, residues 1-616)
Method: universal PBM
Molecule type: double-stranded DNA, one strand shown
Sample: in vitro
Tested at: not given
Setting: 8-mer, flanks averaged, mean of replicates
Reading: higher = stronger binding
Oligonucleotide	E-score
CTTGTGTA	0.146
GAACGCTC	-0.352
TAGAGATA	0.121
AAAAAAAG	0.19
CCCATCTC	-0.168
ATCCTAAG	-0.0801
AATTTGTC	0.182
CTGTTGTC	-0.103
TAAACCGA	0.0664
GATGTGAA	0.153
CATAGCCC	-0.198
AGACGGGG	-0.314
ACGCTCTA	-0.159
AGTCGTCA	-0.0543
ATCTATCG	0.149
ACCTTGGA	-0.137
AATGGTCC	0.0244
ATGCGAGG	-0.0211
CGACTGCC	-0.231
GGCATCGA	-0.085
TACACCAA	0.0177

Block 5
Target: CCNF, cyclin fold, Cln2 fusion (human)
Method: yeast growth competition, sequencing
Sample: yeast
Setting: strong parent motif
Relative to: not given
Reading: higher = stronger binding
Starting sequence: TICRR docking peptide (human); TKVRRNLFNQELL
Variant	normalised enrichment score
R5K	2.88
L7A	0.589
F8L	1.34
R5A L7A	0.0589
T1A	7.04
F8A	0.526
E11A	5.54
K2A	8.6
V3A	4.64
L12A	5.9

Block 6
Target: Prothrombin, mature alpha-thrombin (F2, Homo sapiens, UniProt P00734)
Method: aptamer microarray, sandwich
Molecule type: DNA with 2'F-ANA
Sample: in vitro
Tested at: 200 nM
Setting: whole 15-mer aptamer, many near background
With: Cy3 exosite-II aptamer, 400 nM
Reading: higher = stronger binding
Oligonucleotide: GGTTGGTGTGGTTGG
Modification	mean fluorescence intensity
2'F-ANA at 4 5 7 8 9 11	61.3 a.u.
2'F-ANA at 5 8 12 15	202 a.u.
2'F-ANA at 1 3 6 7 9 10 11 14	59.9 a.u.
2'F-ANA at 1 3 4 5 7 10 11 12 13 14 15	47.1 a.u.
2'F-ANA at 1 6 7 8 9 11 13	152 a.u.
2'F-ANA at 3 5 7 10 15	53.5 a.u.
2'F-ANA at 1 3 4 10 11 12	137 a.u.
2'F-ANA at 4 7 8 9 10 13 14 15	63.9 a.u.
2'F-ANA at 6 7 12 14	250 a.u.
2'F-ANA at 1 2 4 5 7 8 10 11 12 13 14 15	50.3 a.u.
2'F-ANA at 1 2 3 8 11 13 15	228 a.u.
2'F-ANA at 3 4 5 10 11 12 15	59.7 a.u.
2'F-ANA at 3 5 9 10 11 12 14	51.4 a.u.
2'F-ANA at 1 3 9 10 11 13	73.2 a.u.
2'F-ANA at 1 2 5 6 7 9 10 11 12 15	50.4 a.u.
2'F-ANA at 2 6 10	123 a.u.
2'F-ANA at 2 3 4 5 11 12 14	51.1 a.u.

Repeated from above (block 4):
Oligonucleotide	E-score
CGACTGCC	-0.231
TACACCAA	0.0177
TAAACCGA	0.0664
AGACGGGG	-0.314
CTGTTGTC	-0.103
AAAAAAAG	0.19
CCCATCTC	-0.168
ACCTTGGA	-0.137
ATCTATCG	0.149
ACGCTCTA	-0.159
ATCCTAAG	-0.0801
AATGGTCC	0.0244
GGCATCGA	-0.085
AGTCGTCA	-0.0543
